# Measurements of several laboratories.
# Lines come from different studies, so protocols differ. Numbers after ± are the reported error.
# Organism: Escherichia coli
SMILES,test,test system,setting,how to read,MIC
CC[C@H](C)[C@H](NC(=O)[C@H](CC(C)C)NC(=O)[C@H](CCCNC(=N)N)NC(=O)[C@@H](N)CCCNC(=N)N)C(=O)N[C@@H](CCCNC(=N)N)C(=O)N[C@@H](CCCCN)C(=O)N[C@@H](CC(C)C)C(=O)N[C@@H](CCCCN)C(=O)NCC(=O)N[C@@H](CC(C)C)C(=O)N[C@@H](CCCCN)C(=O)N[C@@H](CCCCN)C(=O)N[C@@H](Cc1ccc(O)cc1)C(=O)N[C@@H](CC(C)C)C(=O)N[C@@H](Cc1ccc(O)cc1)C(=O)N[C@@H](Cc1ccccc1)C(=O)N[C@@H](CCCCN)C(=O)N[C@@H](CC(C)C)C(=O)N[C@@H](CCC(N)=O)C(=O)N[C@@H](CC(C)C)C(=O)N[C@@H](CC(C)C)C(=O)N[C@@H](CCCCN)C(=O)N[C@@H](CCCCN)C(N)=O,broth microdilution,"KCTC 1682, Mueller-Hinton broth",added: FeCl3 4 µM,,32 µM
COc1c(N2CC3CCCNC3C2)c(F)cc2c(=O)c(C(=O)OCc3cnc([N+](=O)[O-])s3)cn(C3CC3)c12 (centres unmarked),,"NR 17661, fluoroquinolone-resistant",,,> 97 µM
C[C@@H](O)[C@H]1C(=O)N2C(C(=O)O)=C(S[C@@H]3CN[C@H](C(=O)N(C)C)C3)[C@H](C)[C@H]12,,DH5α cloned blaKPC-127,,,≤ 0.06 µg/mL
CC[C@H](C)[C@H](NC(=O)[C@H](CO)NC(=O)CNC(=O)[C@H](CCCCN)NC(=O)[C@@H](NC(=O)[C@H](CC(N)=O)NC(=O)[C@H](Cc1ccccc1)NC(=O)[C@H](CC(N)=O)NC(=O)[C@@H](NC(=O)[C@H](CCCNC(=N)N)NC(=O)[C@@H]1CCCN1C(=O)[C@H](CCCNC(=N)N)NC(=O)[C@@H](NC(=O)[C@H](CCCNC(=N)N)NC(=O)[C@H](CCCNC(=N)N)NC(=O)[C@@H](NC(=O)[C@H](CCCNC(=N)N)NC(=O)[C@H](CO)NC(=O)[C@H](CC(C)C)NC(=O)[C@H](Cc1ccccc1)NC(=O)[C@H](CCCNC(=N)N)NC(=O)CNC(=O)[C@H](Cc1ccccc1)NC(=O)[C@H](CCCNC(=N)N)NC(=O)CNC(=O)[C@H](CCCNC(=N)N)NC(=O)[C@H](CCC(N)=O)NC(=O)[C@@H](NC(=O)[C@@H](N)CC(C)C)C(C)C)[C@@H](C)CC)[C@@H](C)CC)[C@@H](C)CC)[C@@H](C)CC)C(=O)O,broth microdilution,"K88, Mueller-Hinton broth",37 °C,,2.49 µM
CO/N=C(\C(=O)N[C@@H]1C(=O)N2C(C(=O)O)=C(COC(C)=O)CS[C@H]12)c1csc(N)n1,,BL21(DE3) carrying Ftu-1,,,< 1.75 µg/mL
COc1c(C(=O)Nc2ccc(C(=O)O)cc2)ccc2nc(-c3cc(NC(=O)C(CC(N)=O)NC(=O)c4ccc(NC(=O)c5ccc(C#N)cc5)cc4)cn3C)[nH]c12 (centres unmarked),,K12 ΔtolC,,,> 64 µg/mL
CC[C@H](C)[C@H](NC(=O)[C@H](C)NC(=O)[C@H](CCCCN)NC(=O)[C@H](CCCNC(=N)N)NC(=O)[C@H](CCCCN)NC(=O)[C@H](CCCNC(=N)N)NC(=O)[C@H](CCCCN)NC(=O)[C@@H](N)CCCNC(=N)N)C(=O)N[C@@H](CO)C(=O)NCC(=O)N[C@@H](CO)C(=O)N[C@@H](CC(C)C)C(=O)N[C@H](C(=O)N[C@H](C(=O)N[C@@H](CC(C)C)C(=O)N[C@@H](Cc1ccccc1)C(=O)NCC(=O)N[C@@H](Cc1ccc(O)cc1)C(N)=O)[C@@H](C)O)C(C)C,checkerboard,,"24 h, 37 °C, alone, rifampicin plate",,16 µM
CC1(C)S[C@@H]2[C@H](NC(=O)C(C(=O)O)c3ccccc3)C(=O)N2[C@H]1C(=O)O (some centres unmarked),broth microdilution,Keio mutant JW5086-3,"18 h, ferrienterobactin permease gene",,6.12 µg/mL
CC(C)C[C@@H](NC(=O)CNC(=O)[C@@H](CCCCN)NC(=O)[C@@H](CC(C)C)NC(=O)[C@@H](CCCCN)NC(=O)[C@@H](CCCNC(=N)N)NC(=O)[C@@H](CC(C)C)NC(=O)[C@@H](CC(C)C)NC(=O)[C@@H](CCCNC(=N)N)NC(=O)[C@H](N)CCCNC(=N)N)C(=O)N[C@H](CCCCN)C(=O)N[C@H](CCCCN)C(=O)N[C@H](Cc1ccc(O)cc1)C(=O)N[C@H](CC(C)C)C(=O)N[C@H](Cc1ccc(O)cc1)C(=O)N[C@H](Cc1ccccc1)C(=O)N[C@H](CCCCN)C(=O)N[C@H](CC(C)C)C(=O)N[C@H](CCC(N)=O)C(=O)N[C@H](CC(C)C)C(=O)N[C@H](CC(C)C)C(=O)N[C@H](CCCCN)C(=O)N[C@H](CCCCN)C(N)=O,broth microdilution,"KCTC 1682, Mueller-Hinton broth",no added salt,,2 µM
C[C@H]1COc2c(N3CCN(C)CC3)c(F)cc3c(=O)c(C(=O)O)cn1c23,,"1191008, multidrug-resistant",,,> 8 µg/mL
CC[C@H](C)[C@H](NC(=O)CN)C(=O)N[C@@H](C)C(=O)N[C@@H](CC(=O)O)C(=O)N[C@@H](C)C(=O)N[C@H](C(=O)N[C@@H](CCCCN)C(=O)N[C@@H](CCCCN)C(=O)N[C@H](C(=O)N[C@@H](C)C(=O)N[C@@H](CCCCN)C(=O)N[C@@H](C)C(=O)N[C@@H](CC(C)C)C(=O)NCC(N)=O)[C@@H](C)CC)[C@@H](C)CC,,"ATCC 25922, Mueller-Hinton broth","12 h, 37 °C",,64 µg/mL
CC[C@H](C)[C@H](NC(=O)CN)C(=O)NCC(=O)N[C@@H](C)C(=O)N[C@H](C(=O)N[C@@H](CC(C)C)C(=O)N[C@@H](CCCCN)C(=O)N[C@H](C(=O)N[C@@H](CC(C)C)C(=O)N[C@H](C(=O)N[C@H](C(=O)NCC(=O)N[C@@H](CC(C)C)C(=O)N1CCC[C@H]1C(=O)N[C@@H](C)C(=O)N[C@@H](CC(C)C)C(=O)N[C@H](C(=O)N[C@@H](CO)C(=O)N[C@@H](Cc1c[nH]c2ccccc12)C(=O)N[C@H](C(=O)N[C@@H](CCCCN)C(=O)N[C@@H](CCCNC(=N)N)C(=O)N[C@@H](CCCCN)C(=O)N[C@@H](CCCNC(=N)N)C(=O)N[C@@H](CCC(N)=O)C(=O)N[C@@H](CCC(N)=O)C(N)=O)[C@@H](C)CC)[C@@H](C)CC)[C@@H](C)O)[C@@H](C)O)C(C)C)C(C)C,,NCCP 16044 carbapenem-resistant,,,8 µM
O=C(O)CN1CCN(CC(=O)O)CCN(CC(=O)O)CCN(CC(=O)O)CC1,,NDM-1 producing,compound alone,,> 2000 µM
CC[C@H](C)[C@H](N)C(=O)N[C@@H](CC(C)C)C(=O)N1CCC[C@H]1C(=O)N[C@@H](Cc1c[nH]c2ccccc12)C(=O)N[C@@H](CCCCN)C(=O)N[C@@H](Cc1c[nH]c2ccccc12)C(=O)N1CCC[C@H]1C(=O)N[C@@H](Cc1c[nH]c2ccccc12)C(=O)N[C@@H](Cc1c[nH]c2ccccc12)C(=O)N1CCC[C@H]1C(=O)N[C@@H](Cc1c[nH]c2ccccc12)C(=O)N[C@@H](CCCNC(=N)N)C(=O)N[C@@H](CCCNC(=N)N)C(N)=O,broth dilution,K12 BW25113,"18 h, 37 °C",,4.6 µM
CC1(C)SC2C(NC(=O)C(NC(=O)C3=C(O)CNC3=O)c3ccccc3)C(=O)N2C1C(=O)O (centres unmarked),broth microdilution,Keio mutant JW5086-3,"18 h, ferrienterobactin permease gene",,25 µg/mL
CN1C(=O)Cc2ccc(F)c(CCNCC[C@H]3CN(c4ccc5c(n4)NC(=O)CO5)C(=O)O3)c21,,ATCC 25922,,,0.06 µg/mL
CC(C)[C@H](NC(=O)[C@H](C)N)C(=O)N[C@@H](C)C(=O)N[C@H](C(=O)N[C@H](C(=O)NCC(=O)N[C@@H](CCC(N)=O)C(=O)N[C@@H](C)C(=O)N[C@@H](C)C(=O)N[C@H](C(=O)N[C@H](C(=O)N[C@H](C(=O)N[C@@H](CCCCN)C(N)=O)C(C)C)C(C)C)[C@@H](C)O)C(C)C)C(C)C,,"K1 ATCC 700973, Mueller-Hinton broth","16 h, 37 °C",growth inhibition over 99%,> 64 µM
CC[C@H](C)[C@H](NC(=O)[C@H](C)NC(=O)[C@@H](N)CCCCN)C(=O)N[C@H](C(=O)N[C@@H](CCC(N)=O)C(=O)N[C@@H](CCCNC(=N)N)C(=O)N[C@H](C(=O)N[C@@H](CCCCN)C(=O)N[C@@H](CC(=O)O)C(=O)N[C@@H](Cc1ccccc1)C(=O)N[C@@H](CC(C)C)C(=O)N[C@@H](CCCNC(=N)N)C(N)=O)[C@@H](C)CC)C(C)C,broth microdilution,K12,"16 h, 37 °C",,120 ± 43 µM
CC[C@H](C)CCCCC(=O)N[C@@H](CCN)C(=O)N[C@H](C(=O)N[C@@H](CCN)C(=O)N[C@H]1CCNC(=O)[C@H]([C@@H](C)O)NC(=O)[C@H](CCN)NC(=O)[C@H](CCN)NC(=O)[C@H](CC(C)C)NC(=O)[C@@H](Cc2ccccc2)NC(=O)[C@H](CCN)NC1=O)[C@@H](C)O,,ATCC 25922,"18 h, 37 °C, 0.3 mM ZnSO4 LB",,2 µg/mL
CCCCCCC/C=C/C(=O)N1C(=O)/C(=C(\O)c2ccncc2)C(=O)C1CC(C)C (centres unmarked),,K12 ΔtolC,,,6.25 µg/mL

# A few entries again:
SMILES,test,test system,setting,how to read,MIC
CC[C@H](C)[C@H](NC(=O)[C@H](C)NC(=O)[C@H](CCCCN)NC(=O)[C@H](CCCNC(=N)N)NC(=O)[C@H](CCCCN)NC(=O)[C@H](CCCNC(=N)N)NC(=O)[C@H](CCCCN)NC(=O)[C@@H](N)CCCNC(=N)N)C(=O)N[C@@H](CO)C(=O)NCC(=O)N[C@@H](CO)C(=O)N[C@@H](CC(C)C)C(=O)N[C@H](C(=O)N[C@H](C(=O)N[C@@H](CC(C)C)C(=O)N[C@@H](Cc1ccccc1)C(=O)NCC(=O)N[C@@H](Cc1ccc(O)cc1)C(N)=O)[C@@H](C)O)C(C)C,checkerboard,,"24 h, 37 °C, alone, rifampicin plate",,16 µM
